Published values of several laboratories.
Lines come from different studies, so protocols differ. “And” joins repeats or separate records; there may be more than shown. Numbers after ± are the reported error.

| Compound | test | system | conditions | plasma concentration |
| --- | --- | --- | --- | --- |
| CNC(=O)c1cc2c(Oc3ccc(NC(=O)C4(C(=O)Nc5ccc(F)cc5)CC4)cc3)ccnc2cc1OC | LC-MS/MS | CB.17-SCID mouse, Hs746T xenograft, plasma | oral, 100 mg/kg single dose, 4 h | 63.4 µM |
| O=C1CCC(N2Cc3cc(CO)c(F)cc3C2=O)C(=O)N1 (stereo not shown) | – | CD-1 mouse, male | oral, 10 mg/kg parent drug, 2 h | 26.8 ± 20.6 ng/mL |
| CC(=O)N(C)C1CCN(c2cc(F)cc(NC(=O)c3cc4c(F)ccc(C)c4[nH]3)c2)C1 (stereo not shown) | – | CD1 mouse, plasma | oral, 50 mg/kg, 7 h | 4.34 ng/mL |
| C[C@@H](O)[C@H]1C(=O)N2C(C(=O)O)=C(S[C@@H]3CN[C@H](C(=O)N(C)C)C3)[C@H](C)[C@H]12 | – | BALB/c mouse, male, plasma | intraperitoneal, dose not given, 8 h, with: combination treatment | 2920 ng/mL |
| CC(C)c1cc(C(=O)NCCN)c2cnn(C(C)C)c2n1 | – | mouse BALB/c female, plasma | intraperitoneal, 50 mg/kg, 0.5 h | 1780 ng/mL and 2600 ng/mL and 2330 ng/mL and 2530 ng/mL |
| CC(=O)NCc1cc2c(cc1F)C(=O)N(C1CCC(=O)NC1=O)C2 (stereo not shown) | – | CD-1 mouse, male | oral, 10 mg/kg parent drug, 1 h | 4.1 ± 1.8 ng/mL |
| Cc1ncsc1-c1ccc(CNC(=O)[C@@H]2C[C@@H](O)CN2C(=O)[C@@H](NC(=O)CCCCCCCCCC(=O)N2CCN(CC[C@H](NC(=O)C3(N)CCN(c4ncnc5[nH]ccc45)CC3)c3ccc(Cl)cc3)CC2)C(C)(C)C)cc1 | – | mouse, plasma | intraperitoneal, 75 mg/kg once daily for 5 days, 2 h after last dose | ~5 µM |
| CC(C)(C)c1cc(NC(=O)Nc2ccc(Oc3ccnc4[nH]c(=O)cnc34)cc2F)n(-c2ccccc2)n1 | – | nude mouse, female, tumor | oral, 20 mg/kg, 1 h after last dose | 6.04 µM and 14.4 µM and 7.63 µM and 8.6 µM and 6.26 µM and 3.48 µM |
| Cc1c(C(=O)O)ccc2c3n(nc12)[C@@H]1[C@H](C3)N(CC2CC2)[C@@]2(C(=O)Nc3cc(Cl)ccc32)[C@H]1c1cccc(Cl)c1F | – | female BALB/c nude mouse, SJSA-1 xenograft, plasma | oral, 1 mg/kg twice daily, 14 h | 1.08 µM |
| O=[N+]([O-])c1ccc(-c2ccc(O)cc2)c2cccnc12 | – | ICR mouse, male | oral, 5 mg/kg, 2 h | 3.31 ng/mL |
| CCN1CCN(Cc2ccc(NC(=O)c3ccc(C)c(NC(=O)c4cncc(-c5cccs5)c4)c3)cc2C(F)(F)F)CC1 | LC-MS/MS | C57BL/6 mouse, plasma | intraperitoneal, 20 mg/kg single dose, 1 h | 422 ng/mL and 461 ng/mL and 564 ng/mL |
| CN(C)CC#Cc1ccc2[nH]c3c(c2c1)-c1nc(N)ncc1CCC3 | – | male CD-1 mouse, plasma | intraperitoneal, 30 mg/kg, 1 h | 622 ng/mL |
| CSc1cc(Oc2ccnc3[nH]c(=O)cnc23)ccc1NC(=O)Nc1cc(C(C)(C)C)nn1-c1ccccc1 | – | nude mouse, female, plasma | oral, 20 mg/kg, 1 h after last dose | 75.4 µM and 94.3 µM and 66.8 µM and 66 µM and 70 µM and 44.1 µM |
| C[C@H]1O[C@@H](O[C@H]2CC[C@@]3(C)[C@@H](CC[C@]4(C)[C@@H]3C=C[C@]35OC[C@@]6(CCC(C)(C)C[C@H]63)[C@@H](O)C[C@]54C)[C@]2(C)CO)[C@H](O)[C@@H](O[C@@H]2O[C@H](CO)[C@@H](O)[C@H](O)[C@H]2O)[C@H]1O | UHPLC-MS/MS | mouse, plasma | oral, 50 mg/kg, 24 h, pooled samples | 0 ng/mL |
| CC(C)n1ncc2c(C(=O)NCC3(C)CNC3)cc(C3CC3)nc21 | – | mouse BALB/c female, plasma | intraperitoneal, 50 mg/kg, 4 h | 1350 ng/mL and 1100 ng/mL and 1220 ng/mL and 1070 ng/mL |
| C[C@]12CC[C@@H]3c4ccc(O)cc4C[C@@H](CCCCCCCCC[S+]([O-])CCCC(F)(F)C(F)(F)F)[C@H]3[C@@H]1CC[C@@H]2O (stereo partly shown) | – | mouse NOD/SCID female MCF7 xenograft, plasma | subcutaneous, 200 mg/kg, 7 days | 64 ng/mL |
| Cc1cc([C@H]2C[C@H]3[C@@H](C)SC(N)=N[C@@]3(c3ccc(F)cc3F)CO2)on1 | – | male 129/SVE mouse, plasma | subcutaneous, 50 mg/kg, 1 h | 9.16 µM |
| c1ccc(-c2nc(N3CCC(c4ccccn4)C3)c3ccccc3n2)nc1 (stereo not shown) | – | mouse, Balb/c female, plasma | oral, 12.5 mg/kg, 2 h, mean, with: aminobenzotriazole pretreatment | 3920 ng/mL |
| Cc1cc([C@H]2C[C@H]3[C@@H](CF)SC(N)=N[C@@]3(c3ccc(F)cc3F)CO2)on1 | – | male 129/SVE wild-type mouse, plasma | subcutaneous, 30 mg/kg, 14 h | 0.018 µM |
| CCCCCN1C[C@H](O)[C@@H](O)[C@H](O)[C@@H]1CO | LC-MS/MS | mouse Hexb-/- female, plasma | 30 mg/kg/day, arithmetic mean | 324 ng/mL |
| Cc1coc([C@H]2C[C@H]3[C@@H](CF)SC(N)=N[C@@]3(c3ccc(F)cc3F)CO2)n1 | – | male 129/SVE mouse, plasma | subcutaneous, 80 mg/kg, 7 h | 0.016 µM |
| c1csc(CNc2cc[nH]n2)c1 | – | mouse, CD-1, male, plasma | oral, 20 mg/kg as HCl salt, 1 h | 1.79 µM |

Repeated from above:
| Compound | test | system | conditions | plasma concentration |
| --- | --- | --- | --- | --- |
| C[C@H]1O[C@@H](O[C@H]2CC[C@@]3(C)[C@@H](CC[C@]4(C)[C@@H]3C=C[C@]35OC[C@@]6(CCC(C)(C)C[C@H]63)[C@@H](O)C[C@]54C)[C@]2(C)CO)[C@H](O)[C@@H](O[C@@H]2O[C@H](CO)[C@@H](O)[C@H](O)[C@H]2O)[C@H]1O | UHPLC-MS/MS | mouse, plasma | oral, 50 mg/kg, 24 h, pooled samples | 0 ng/mL |
| CNC(=O)c1cc2c(Oc3ccc(NC(=O)C4(C(=O)Nc5ccc(F)cc5)CC4)cc3)ccnc2cc1OC | LC-MS/MS | CB.17-SCID mouse, Hs746T xenograft, plasma | oral, 100 mg/kg single dose, 4 h | 63.4 µM |
